Published values of several laboratories.
Lines come from different studies, so protocols differ.

Compound	test	test system	conditions	endpoint	result
NCCONC(=O)[C@@H]1CC[C@@H]2CN1C(=O)N2OS(=O)(=O)O	measured: urinary red blood cells positive	healthy Chinese men	intravenous, 2 g, treatment-emergent	adverse event incidence	0%
CC(C)C[C@H](NC(=O)CNC(=O)c1cc(Cl)ccc1Cl)B(O)O		newly diagnosed multiple myeloma patients	oral, dose not given, Headache, maintenance	adverse events all grades	11%
O=C1CCc2ccc(OCCCCN3CCN(c4cccc(Cl)c4Cl)CC3)cc2N1	measured: Rigidity	genotyped patients, CYP2D6 poor metabolizers	dose not given, long-acting oral or depot	adverse event incidence	11%
Cc1nc(-c2ccc(OCC(C)C)c(C#N)c2)sc1C(=O)O		healthy Chinese subjects	oral, 40 mg, fed	adverse drug reaction incidence	25%
C=CC[C@@H]1/C=C(\C)C[C@H](C)C[C@H](OC)[C@H]2O[C@@](O)(C(=O)C(=O)N3CCCC[C@H]3C(=O)O[C@H](/C(C)=C/[C@@H]3CC[C@@H](O)[C@H](OC)C3)[C@H](C)[C@@H](O)CC1=O)[C@H](C)C[C@@H]2OC	measured: high blood pressure	kidney transplant recipients	oral, dose not given	adverse drug reactions	22%
CC(=O)N(C)[C@H]1CCN(C(=O)c2cnc3c(c2)C[C@](C)(c2ccc(F)cc2)N3)C1		healthy male subjects, multiple rising dose	oral, 30 mg once daily	adverse events leading to discontinuation	0%
CC#CC(=O)N[C@H]1CCCN(c2c(F)cc(C(N)=O)c3[nH]c(C)c(C)c23)C1		healthy volunteers	oral, 3 mg once daily, 14 days, MAD phase I	adverse events	100%
Cc1cc(Nc2ccc(S(F)(F)(F)(F)F)cc2)n2nc(C(C)(F)F)nc2n1		Plasmodium vivax malaria patients	oral, 600 mg	adverse event Asthenia	0%
C=CC(=O)N1CCC(c2ccc(C(N)=O)c(-c3ccc(Oc4ccccc4)cc3)n2)CC1		relapsed/refractory mantle cell lymphoma patients	oral, 150 mg once daily, part, CTCAE v4.03	adverse event rate	68.8%
Cc1cc(C)c(CNC(=O)c2cc(Cl)c3c(c2C)O[C@@](C)([C@H]2CC[C@H](N(C)C)CC2)O3)c(=O)[nH]1		relapsed/refractory NHL patients	oral, 200 mg once daily, onset after cycle 1 day 1	adverse event Hypertension	20.8%
C[C@H]1CNCCCN1S(=O)(=O)c1cccc2cncc(F)c12	measured: Miliaria	healthy adult men	topical ocular, 1 drop per eye twice daily, 8 days	adverse events	5.6%
CC(=O)O[C@H]1C(=O)[C@@]2(C)[C@H]([C@H](OC(=O)c3ccccc3)[C@]3(O)C[C@H](OC(=O)[C@H](O)[C@@H](NC(=O)c4ccccc4)c4ccccc4)C(C)=C1C3(C)C)[C@]1(OC(C)=O)CO[C@@H]1C[C@@H]2O	measured: Alopecia	patients with advanced solid tumours	intravenous, dose not given, all grades, possibly related to drug	adverse event incidence	28%
CCO[C@H]1CCN(Cc2c(OC)cc(C)c3[nH]ccc23)[C@H](c2ccc(C(=O)O)cc2)C1	measured: abdominal discomfort	PNH patients with active haemolysis	oral, 200 mg, extension phase	adverse event incidence	0%
Cc1c(Cl)c(C)[n+]([O-])c(Cl)c1-c1noc(-c2cc(O)c(O)c([N+](=O)[O-])c2)n1	measured: Presyncope	healthy Chinese subjects	oral, 25 mg, 4 days	adverse drug reaction incidence	0%
O=C(c1cccnc1-c1ccncc1)N1CCC(O)(Cc2ccccc2)CC1		healthy Japanese adults	oral, dose not given	adverse events leading to discontinuation	0%

Excerpt of the above:
Compound	test	test system	conditions	endpoint	result
CCO[C@H]1CCN(Cc2c(OC)cc(C)c3[nH]ccc23)[C@H](c2ccc(C(=O)O)cc2)C1	measured: abdominal discomfort	PNH patients with active haemolysis	oral, 200 mg, extension phase	adverse event incidence	0%
Cc1c(Cl)c(C)[n+]([O-])c(Cl)c1-c1noc(-c2cc(O)c(O)c([N+](=O)[O-])c2)n1	measured: Presyncope	healthy Chinese subjects	oral, 25 mg, 4 days	adverse drug reaction incidence	0%
